# Measurements gathered from unrelated publications.
# Each line is one published result; not all experiments were run side by side. ± gives the spread as reported.
Structure (SMILES),cell line,assay,test system,conditions,scale,measurement,value
CCn1c(SC(C)C(=O)Nc2ccccc2C)nnc1C1CCN(C(=O)Nc2ccccc2)CC1 (centres unmarked),human blood mononuclear cells,MTT,,"0.25 mM, 2 h, pH 7.4",,viability,76.6 ± 2.7%
O=C(Cn1cc(C2CC(c3ccccc3)=NN2)nn1)Nc1nc(-c2ccccc2)cs1 (centres unmarked),WI-38,MTT,,"72 h, 100% viability, 10% FBS",,safe concentration,122 ± 11 nM
CCn1c(SC(C)C(=O)Nc2cc(C)ccc2C)nnc1C1CCN(C(=O)Nc2ccccc2)CC1 (centres unmarked),human blood mononuclear cells,MTT,,"0.25 mM, 2 h, pH 7.4",,viability,87.6 ± 2.9%
O=C(CNc1nc(NNC(=O)c2ccc(Nc3nc(Nc4ccc(C(=O)NNc5nc(NCC(=O)NO)nc(N6CCOCC6)n5)cc4)nc(Nc4ccc(C(=O)NNc5nc(NCC(=O)NO)nc(N6CCOCC6)n5)cc4)n3)cc2)nc(N2CCOCC2)n1)NO,WI-38 cells,"cell viability, MTT",,72 h,,maximum non-toxic concentration,1.7 ± 0.1 nM
NS(=O)(=O)c1ccc(NC(=O)NN[C@@H]2O[C@H](CO)[C@@H](O)[C@H](O)[C@H]2O)cc1,rabbit erythrocytes,,,"4 µg/mL, 3 h",relative to: complete lysis,hemolysis,0%
CSCC(NC(=O)c1cc(Cl)ccc1Cl)C(=O)NC(O)CC(C)C (centres unmarked),beagle dog primary hepatocytes,UPLC-Q-TOF MS,,"3 µM of prodrug, 3 h",,detection,not detected
COc1ccc([C@@H]2CC(=O)c3c(O)cc(O[C@@H]4O[C@H](CO[C@@H]5O[C@@H](C)[C@H](O)[C@@H](O)[C@H]5O)[C@@H](O)[C@H](O)[C@H]4O)cc3O2)cc1O,MRC5,"cell growth or viability, MTS",,"150 µg/mL, 24 h",,viability,40.7%
Clc1cc(Cl)cc(CNCCCNc2nc3ccccc3[nH]2)c1,CRL-8155 and HepG2,cytotoxicity,,,,EC50,~5 µM
CCN(CC)c1ccc(C=NNC(=O)c2ccccn2)c(O)c1,rabbit erythrocytes,,,1 h,,HC50,> 256 µg/mL
Fc1cc2nc(NCCCNCc3cc(Cl)cc(Cl)c3)[nH]c2cc1F,CRL-8155 and HepG2,cytotoxicity,,,,EC50,~10 µM
C=CC(C)(C)c1c(O)cc2c(c1O)C(=O)CC(c1ccccc1)O2 (centres unmarked),U-937,"cytotoxicity, resazurin",RPMI with FBS,24 h,,EC50,59.9 ± 5.2 µg/mL
CCn1c(SC(C)C(=O)Nc2cccc(C)c2)nnc1C1CCN(C(=O)Nc2ccccc2)CC1 (centres unmarked),human blood mononuclear cells,MTT,,"0.25 mM, 2 h, pH 7.4",,viability,84.4 ± 2.9%
Clc1cc(Cl)c2c(c1)[C@H](NCCCNc1nc3ncccc3[nH]1)CCN2,CRL-8155 and HepG2,cytotoxicity,,,,EC50,≥ 20 µM
COC(=O)COc1ccc(NC(=O)C2(c3ccc(Cl)c(Cl)c3)CC2)c(C)c1,U-937,LDH release,,"100 µM, 4 h",relative to: Triton X-100,cytotoxicity,-2%
CCNc1cc2c(cc1C)C1(c3cc(C)c(NCC)cc3O2)c2ccccc2C(=O)N1N=Cc1c[c-]c(-c2ccccn2)cc1.Cc1c(C)c(-c2ccc(-c3ccccc3)cc2)[c-](C)c1C.[Cl-].[Ir+3],A549,confocal microscopy,,"1 × IC50, 4 °C, together with: CCCP 50 µM",,cellular uptake,decreased
CSCC[C@H](NC(=O)[C@H](CCC(N)=O)NC(=O)[C@H](Cc1ccc(O)cc1)NC(=O)[C@H](CO)NC(=O)[C@@H](N)Cc1ccc(O)cc1)C(=O)N[C@@H](C)C(=O)N[C@@H](CC(C)C)C(=O)N[C@H](C(=O)N1CCC[C@H]1C(=O)N[C@H](C(=O)N[C@H](C(=O)N[C@@H](CCCCNC(=O)c1ccc2c(c1)C(=O)OC21c2ccc(O)cc2Oc2cc(O)ccc21)C(=O)N[C@H](C(=O)N[C@@H](CC(C)C)C(=O)O)[C@@H](C)O)C(C)C)C(C)C)[C@@H](C)O,U-937,single-cell capillary electrophoresis,,"100 µM, pinocytic loading",,time to degradation,≤ 20 min
N=C(N)Nc1nc2ccccc2s1,WI-38,MTT,,"concentration not given, 24 h",,cytotoxicity,not toxic
Nc1cccc[n+]1Cc1cccc(C[n+]2ccccc2N)c1,MRC-5,,,concentration not given,,cytotoxicity,not toxic
CC(C)C[C@H](NC(=O)[C@H](C)NC(=O)[C@H](CCCCN)NC(=O)[C@H](C)NC(=O)[C@H](CCCNC(=N)N)NC(=O)[C@H](C)NC(=O)[C@H](CCC(N)=O)NC(=O)[C@H](CCCNC(=N)N)NC(=O)[C@H](C)NC(=O)[C@H](C)NC(=O)[C@H](C)NC(=O)[C@H](CCCNC(=N)N)NC(=O)[C@H](C)NC(=O)[C@H](Cc1ccc(O)cc1)NC(=O)CCNC(=S)Nc1ccc2c(c1)C(=O)OC21c2ccc(O)cc2Oc2cc(O)ccc21)C(=O)N[C@@H](C)C(=O)N[C@@H](CCCNC(=N)N)C(=O)N[C@@H](CCC(N)=O)C(=O)N[C@@H](CC(C)C)C(=O)NCC(=O)N[C@H](C(=O)N[C@@H](C)C(=O)N[C@@H](C)C(N)=O)C(C)C,mesothelial cells,flow cytometry,,"30 µM, together with: 100 µM EIPA",,uptake,inhibited
CCn1c(SC(C)C(=O)NCc2ccccc2)nnc1C1CCN(C(=O)Nc2ccccc2)CC1 (centres unmarked),human blood mononuclear cells,MTT,,"0.25 mM, 2 h, pH 7.4",,viability,79.7 ± 2.8%
CC(=O)c1cccc(NC2C(N)C(NC(=O)N(C)C)(C(C)O)C(O)C2(O)COC(=O)c2c(C)cccc2O)c1 (centres unmarked),MRC-5,cytotoxicity,,free compound,,EC50,0.0065 µM
O=C(O)CNc1nc(O)nc(NNC(=O)c2ccc(Nc3nc(Nc4ccc(C(=O)NNc5nc(O)nc(NCC(=O)O)n5)cc4)nc(Nc4ccc(C(=O)NNc5nc(O)nc(NCC(=O)O)n5)cc4)n3)cc2)n1,WI-38 cells,"cell viability, MTT",,72 h,,maximum non-toxic concentration,3 ± 0.1 nM
O=C1/C(=C/c2ccc3c(c2)OCCO3)SC(=S)N1[C@@H]1O[C@H](CO)[C@@H](O)[C@H](O)[C@H]1O,MCF-10A,"cell growth or viability, MTT",,"100 µM, 48 h",,viability,~75%
Fc1ccc2nc(NCCCN[C@@H]3CCNc4c(Cl)cc(Cl)cc43)[nH]c2n1,CRL-8155 and HepG2,cytotoxicity,,,,EC50,≥ 20 µM
CCc1ccccc1NC(=O)C(C)Sc1nnc(C2CCN(C(=O)Nc3ccccc3)CC2)n1CC (centres unmarked),human blood mononuclear cells,MTT,,"0.25 mM, 2 h, pH 7.4",,viability,76.3 ± 2.8%
CC(C)(C)n1nc(-c2ccc(Cl)cc2)c2c(N)ncnc21,L929,western blot,,"3 h, 10% FBS",,lowest concentration with caspase cleavage,25 µM
CN1CCN(c2ccc(C(=O)Nc3n[nH]c4ccc(Cc5cc(F)cc(F)c5)cc34)c(NC3CCOCC3)c2)CC1,sheep erythrocytes,,,16 to 256 µg/mL,,haemolysis,< 9%
CC(C)CNCc1cc(N(C)C)c2c(c1O)C(=O)C1=C(O)[C@]3(O)C(=O)C(C(N)=O)=C(O)[C@@H](N(C)C)[C@@H]3C[C@@H]1C2,CHO,"cytotoxicity, resazurin",,10% fetal calf serum,,TC50,> 100 µg/mL
O=C(NCCCCCCCNc1n[n+]([O-])c2ccccc2[n+]1[O-])C(F)(F)F,HCT-116,,,,relative to: normoxic IC50 over hypoxic IC50,hypoxic cytotoxicity ratio,2.1
C[C@H](CCC=O)[C@@H]1CC[C@]2(C)C3=C(CC[C@@]12C)[C@@]1(C)CC[C@H](O)C(C)(C)[C@@H]1CC3,SK-LU-1,"cell growth or viability, SRB",,50 µM,,inhibition,88.4%
Clc1cc(Cl)cc(CNCCCNc2nc3ncccc3[nH]2)c1,CRL-8155 and HepG2,cytotoxicity,,,,EC50,≥ 20 µM
c1ccc(-c2nc(-c3ccc4ccccc4c3)c[nH]2)cc1,MRC-5,"cytotoxicity, resazurin",,"7 days, 5% fetal calf serum",,EC50,20 µM
C[C@H](CCC1OC1(C)C)[C@@H]1CC[C@]2(C)C3=C(CC[C@@]12C)[C@@]1(C)CC[C@H](O)C(C)(C)[C@@H]1CC3 (some centres unmarked),SK-LU-1,"cell growth or viability, SRB",,50 µM,,inhibition,4.6%
O=C(CNc1nc(O)nc(NNC(=O)c2ccc(Nc3nc(Nc4ccc(C(=O)NNc5nc(O)nc(NCC(=O)NO)n5)cc4)nc(Nc4ccc(C(=O)NNc5nc(O)nc(NCC(=O)NO)n5)cc4)n3)cc2)n1)NO,WI-38 cells,"cell viability, MTT",,72 h,,maximum non-toxic concentration,2.9 ± 0.2 nM
CN(C)c1cc(CN2CCCCC2)c(O)c2c1C[C@H]1C[C@H]3[C@H](N(C)C)C(O)=C(C(N)=O)C(=O)[C@@]3(O)C(O)=C1C2=O,CHO,"cytotoxicity, resazurin",,10% fetal calf serum,,TC50,> 100 µg/mL
O=C(O)CNc1nc(NCC(=O)O)nc(NNC(=O)c2ccc(Nc3nc(Nc4ccc(C(=O)NNc5nc(NCC(=O)O)nc(NCC(=O)O)n5)cc4)nc(Nc4ccc(C(=O)NNc5nc(NCC(=O)O)nc(NCC(=O)O)n5)cc4)n3)cc2)n1,WI-38 cells,"cell viability, MTT",,72 h,,maximum non-toxic concentration,13.8 ± 0.2 nM
COc1cccc2c1C(=O)c1c(O)c3c(c(O)c1C2=O)CC(O)(C(=O)CO)CC3OC1CC(NC(=O)C[C@H](N)C(=O)O)C(O)C(C)O1 (some centres unmarked),H1299 (LAT1-negative),HPLC,,"20 µg/mL, 2 h, serum-free medium",,cellular uptake,0.016 ± 0.0012 µg/mL
CC(=O)O[C@H]1CC[C@]2(C)C3=C(CC[C@H]2C1(C)C)[C@@]1(C)CC[C@@H]([C@H](C)CCC=C(C)C)[C@]1(C)CC3,SK-LU-1,"cell growth or viability, SRB",,50 µM,,inhibition,40%
CCc1ccc(NC(=O)C(C)Sc2nnc(C3CCN(C(=O)Nc4ccccc4)CC3)n2CC)cc1 (centres unmarked),human blood mononuclear cells,MTT,,"0.25 mM, 2 h, pH 7.4",,viability,87.6 ± 2.6%
CN(Cc1cc(N(C)C)c2c(c1O)C(=O)C1=C(O)[C@]3(O)C(=O)C(C(N)=O)=C(O)[C@@H](N(C)C)[C@@H]3C[C@@H]1C2)CC(C)(C)C,CHO,"cytotoxicity, resazurin",,10% fetal calf serum,,TC50,> 100 µg/mL
CC(=O)N[C@H](C(=O)N[C@H](C(=O)N[C@@H](CCCNC(=N)N)C(=O)N1Cc2ccccc2C[C@H]1C(=O)N[C@@H](Cc1ccccc1)C(N)=O)C1CCCCC1)C(C)C,human PBMC,"Bio-Plex multiplex, refers to: IL-9",,"500 µg/mL, 24 h",,cytokine level,12.3 ± 4.8 pg/mL

# Some of these lines once more:
Structure (SMILES),cell line,assay,test system,conditions,scale,measurement,value
O=C(NCCCCCCCNc1n[n+]([O-])c2ccccc2[n+]1[O-])C(F)(F)F,HCT-116,,,,relative to: normoxic IC50 over hypoxic IC50,hypoxic cytotoxicity ratio,2.1
O=C(O)CNc1nc(NCC(=O)O)nc(NNC(=O)c2ccc(Nc3nc(Nc4ccc(C(=O)NNc5nc(NCC(=O)O)nc(NCC(=O)O)n5)cc4)nc(Nc4ccc(C(=O)NNc5nc(NCC(=O)O)nc(NCC(=O)O)n5)cc4)n3)cc2)n1,WI-38 cells,"cell viability, MTT",,72 h,,maximum non-toxic concentration,13.8 ± 0.2 nM
Nc1cccc[n+]1Cc1cccc(C[n+]2ccccc2N)c1,MRC-5,,,concentration not given,,cytotoxicity,not toxic
